Published values from different studies.
Numbered parts are unrelated; each lists some results of a single study. Positions count from the first letter of the parent shown.

Study 1 — technique: protein-binding microarray; molecule type: double-stranded DNA, one strand shown; matrix: in vitro; tested at: 2200 nM top; setting: 60-bp whole probe; together with: salmon DNA 0.4 mg/ml; baseline: random background probes; direction: higher = stronger binding; measurement: fitted relative affinity; all sequences stand within: GCCTAGCAC … GTCTTGATTCGCTTGACGCTGCTG
Target: Interferon regulatory factor 7, full length, phosphomimetic (IRF7, Homo sapiens, UniProt Q92985, residues 1-503, S471D/S472D/S475D/S476D/S477D/S483D/S484D/S487D)
UniProt Q92985, sequence (whole entry, unmodified, looked up): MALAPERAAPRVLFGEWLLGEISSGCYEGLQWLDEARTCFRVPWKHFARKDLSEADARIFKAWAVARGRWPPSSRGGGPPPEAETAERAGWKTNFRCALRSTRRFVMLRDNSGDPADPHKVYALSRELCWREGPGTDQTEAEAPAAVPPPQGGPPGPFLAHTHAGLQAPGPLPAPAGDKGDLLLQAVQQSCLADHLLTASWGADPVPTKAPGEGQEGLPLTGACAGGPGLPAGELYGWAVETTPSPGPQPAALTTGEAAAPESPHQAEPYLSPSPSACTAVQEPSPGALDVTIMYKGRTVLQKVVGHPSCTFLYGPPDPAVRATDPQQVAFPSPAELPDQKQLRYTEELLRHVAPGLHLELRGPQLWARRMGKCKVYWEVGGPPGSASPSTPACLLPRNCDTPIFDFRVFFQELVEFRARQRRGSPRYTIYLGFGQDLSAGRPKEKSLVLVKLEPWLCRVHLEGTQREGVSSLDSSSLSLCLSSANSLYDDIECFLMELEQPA
TTAGGTTTCGACTATCGGTTAGTGCTA: 3.37 z-score
TTAGGTATCCATTTCCTTTAGTGCTAG: 1.65 z-score
GACGGTATCCTGTTCCTGACGTGCTAG: 1.19 z-score
GACGGTTTCGGGCTGGGGACGTGCTAG: 3.47 z-score
TTAGATATCAGTTTCTATTAGTGCTAG: 2.31 z-score
GACGATTTCAGTATCGAGAAGTGCTAG: 0.622 z-score
TTAGATCTCAGACTGGATTTGTGCTAG: -0.113 z-score
TGAAGAATGCCTTTAATAAGGTGCTAG: -1.04 z-score

Study 2 — target: CCND2, cyclin fold, Cln2 fusion (human); technique: yeast growth competition, sequencing; matrix: yeast; setting: weak parent motif; baseline: not given; direction: higher = stronger binding; measurement: normalised enrichment score
Starting sequence: SLBP docking peptide (human); ARYKRKLLINDFG; partner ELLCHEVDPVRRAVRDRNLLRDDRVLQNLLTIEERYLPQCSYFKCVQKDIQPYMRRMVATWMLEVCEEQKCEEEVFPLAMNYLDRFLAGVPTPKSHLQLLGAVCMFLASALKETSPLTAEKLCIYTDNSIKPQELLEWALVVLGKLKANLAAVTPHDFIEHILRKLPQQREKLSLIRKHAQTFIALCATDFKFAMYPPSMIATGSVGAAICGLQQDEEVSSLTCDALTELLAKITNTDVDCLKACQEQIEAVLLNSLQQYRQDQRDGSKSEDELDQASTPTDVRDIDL
ARYNRKLLINDFG [K4N]: 0.273
ARYKRKRLINDFG [L7R]: 0.527
ARYKRKLLINFFG [D11F]: -0.302
ARYCRKLLINDFG [K4C]: -0.359
ARYKRKLLIPDFG [N10P]: -0.0457
ARYKRKLLINEFG [D11E]: 0.463
ARYFRKLLINDFG [K4F]: 0.193

Study 3 — technique: RNAcompete; molecule type: RNA; matrix: in vitro; tested at: 20 nM; setting: 7-mer, probes averaged, single round; baseline: mean of 7-mers; direction: higher = stronger binding; measurement: 7-mer Z-score
Target: PABPC1L2, full length, GST fusion (mouse, UniProt A0ABA7IW68)
Residues (chain): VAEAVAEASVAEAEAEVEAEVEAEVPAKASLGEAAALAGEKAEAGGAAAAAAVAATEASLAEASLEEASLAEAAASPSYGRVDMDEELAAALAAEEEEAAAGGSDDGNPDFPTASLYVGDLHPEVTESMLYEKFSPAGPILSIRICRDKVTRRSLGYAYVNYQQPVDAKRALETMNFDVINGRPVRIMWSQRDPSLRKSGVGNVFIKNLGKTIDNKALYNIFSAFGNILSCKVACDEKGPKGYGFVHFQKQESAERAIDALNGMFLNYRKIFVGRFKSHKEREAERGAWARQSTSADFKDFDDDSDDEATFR
GAGCGAU: -0.0337
GCGAAGA: 0.131
CGCGUCA: -0.139
AGUGUAG: 0.206
GCUCCAA: -0.133
AUAACGG: 0.189
GCGCAAA: 0.816
CUCAUUC: -0.396
UUACGAA: 0.0515
CCCAUCA: -0.269

Single results of other studies
PhoQ, residues 284 288 289 292 302 303 TASMAF — fold induction (PhoP, residues 12 14 15 18 19 AQCLL (Escherichia coli, UniProt P23836); Sort-seq, item: YFP reporter; E. coli; PhoQ-PhoP variant library, together with: 10 µM Mg2+; baseline: high Mg2+ state, higher = stronger signaling): 1.33

A few entries again (study 1):
TTAGGTTTCGACTATCGGTTAGTGCTA: 3.37 z-score
TTAGGTATCCATTTCCTTTAGTGCTAG: 1.65 z-score
GACGGTATCCTGTTCCTGACGTGCTAG: 1.19 z-score
